Measured values gathered from unrelated publications.
Numbered parts are unrelated; each lists some results of a single study. Several values in a cell are separate wells, animals, samples, runs or records.
Chain of UniProt P10721 (whole entry, unmodified, looked up): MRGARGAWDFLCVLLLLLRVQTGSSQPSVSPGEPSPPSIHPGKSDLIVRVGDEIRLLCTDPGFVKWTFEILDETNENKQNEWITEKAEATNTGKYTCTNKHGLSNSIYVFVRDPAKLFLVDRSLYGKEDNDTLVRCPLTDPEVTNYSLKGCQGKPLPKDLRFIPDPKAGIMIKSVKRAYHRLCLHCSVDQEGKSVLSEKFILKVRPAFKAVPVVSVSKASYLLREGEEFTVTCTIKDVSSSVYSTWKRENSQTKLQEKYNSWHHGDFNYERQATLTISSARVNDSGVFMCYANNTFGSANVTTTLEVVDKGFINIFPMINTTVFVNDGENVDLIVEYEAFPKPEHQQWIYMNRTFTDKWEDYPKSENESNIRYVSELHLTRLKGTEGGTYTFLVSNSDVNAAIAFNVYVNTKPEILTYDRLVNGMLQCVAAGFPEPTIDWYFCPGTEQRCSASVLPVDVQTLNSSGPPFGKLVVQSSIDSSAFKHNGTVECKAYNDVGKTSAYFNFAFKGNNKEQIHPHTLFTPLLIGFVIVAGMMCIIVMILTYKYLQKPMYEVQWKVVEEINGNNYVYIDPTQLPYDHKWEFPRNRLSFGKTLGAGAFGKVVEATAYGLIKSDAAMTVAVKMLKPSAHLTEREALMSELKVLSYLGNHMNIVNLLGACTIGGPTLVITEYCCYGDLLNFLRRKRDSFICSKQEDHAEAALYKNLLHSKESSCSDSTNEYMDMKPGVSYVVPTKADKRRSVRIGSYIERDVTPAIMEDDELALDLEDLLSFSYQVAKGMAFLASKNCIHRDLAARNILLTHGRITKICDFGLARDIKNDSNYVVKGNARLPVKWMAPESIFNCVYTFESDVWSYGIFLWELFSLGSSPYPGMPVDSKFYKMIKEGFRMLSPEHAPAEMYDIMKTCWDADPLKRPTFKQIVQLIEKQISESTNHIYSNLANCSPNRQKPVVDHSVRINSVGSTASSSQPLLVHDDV
Chain of UniProt P21802 (whole entry, looked up): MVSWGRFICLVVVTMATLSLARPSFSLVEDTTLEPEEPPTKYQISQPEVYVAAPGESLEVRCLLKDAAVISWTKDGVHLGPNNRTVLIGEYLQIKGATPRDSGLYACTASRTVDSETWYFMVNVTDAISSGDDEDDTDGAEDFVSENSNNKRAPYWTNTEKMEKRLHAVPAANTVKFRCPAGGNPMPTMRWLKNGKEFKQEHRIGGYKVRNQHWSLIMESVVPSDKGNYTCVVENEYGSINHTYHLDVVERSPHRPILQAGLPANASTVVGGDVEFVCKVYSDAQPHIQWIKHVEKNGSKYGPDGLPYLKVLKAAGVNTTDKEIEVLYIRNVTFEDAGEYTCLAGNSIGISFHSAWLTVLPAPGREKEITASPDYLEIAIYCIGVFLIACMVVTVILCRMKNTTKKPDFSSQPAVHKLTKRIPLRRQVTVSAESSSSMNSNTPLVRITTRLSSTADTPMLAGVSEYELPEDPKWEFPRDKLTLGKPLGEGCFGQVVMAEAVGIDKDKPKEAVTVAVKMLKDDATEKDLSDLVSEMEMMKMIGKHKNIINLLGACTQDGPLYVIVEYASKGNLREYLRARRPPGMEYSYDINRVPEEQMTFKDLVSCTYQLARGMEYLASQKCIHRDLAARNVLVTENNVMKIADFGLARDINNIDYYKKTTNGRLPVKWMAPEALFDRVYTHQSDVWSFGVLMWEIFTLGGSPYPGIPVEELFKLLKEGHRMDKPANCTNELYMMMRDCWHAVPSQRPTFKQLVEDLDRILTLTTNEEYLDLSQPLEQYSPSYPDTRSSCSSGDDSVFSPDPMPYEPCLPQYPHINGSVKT
Chain of UniProt P51812 (whole entry, looked up): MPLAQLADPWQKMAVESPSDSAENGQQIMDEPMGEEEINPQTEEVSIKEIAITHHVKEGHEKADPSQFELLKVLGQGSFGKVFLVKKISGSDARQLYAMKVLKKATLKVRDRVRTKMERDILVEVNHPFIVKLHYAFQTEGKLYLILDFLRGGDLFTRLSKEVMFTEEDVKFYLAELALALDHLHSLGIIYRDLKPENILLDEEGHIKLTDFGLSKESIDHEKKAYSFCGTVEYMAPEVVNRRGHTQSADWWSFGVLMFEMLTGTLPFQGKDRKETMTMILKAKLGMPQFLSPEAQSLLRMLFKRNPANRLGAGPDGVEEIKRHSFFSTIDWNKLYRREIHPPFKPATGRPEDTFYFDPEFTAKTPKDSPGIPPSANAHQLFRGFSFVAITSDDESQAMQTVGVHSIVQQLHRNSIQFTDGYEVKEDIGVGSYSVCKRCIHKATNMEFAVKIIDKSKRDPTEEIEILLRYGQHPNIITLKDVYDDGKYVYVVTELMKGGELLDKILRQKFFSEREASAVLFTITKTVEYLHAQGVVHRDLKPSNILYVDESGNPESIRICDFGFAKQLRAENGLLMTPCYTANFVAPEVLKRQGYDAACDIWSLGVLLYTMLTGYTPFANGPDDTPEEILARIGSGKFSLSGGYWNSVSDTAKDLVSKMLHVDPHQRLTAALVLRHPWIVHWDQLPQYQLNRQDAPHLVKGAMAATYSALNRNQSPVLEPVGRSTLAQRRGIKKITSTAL

Series 1 — cell line: HaCaT; concentration: 100 µM; time: 60 h
SMILES | viability [%]
OC[C@H]1O[C@@H](O[C@@H]2[C@@H](CO)OC(O)(CO)[C@H]2O)[C@H](O)[C@@H](O)[C@H]1O (mixture of isomers) | 136
C#CCN[C@@H]1CCc2ccccc21 | 141
Cc1ncc(C[n+]2csc(CCO)c2C)c(N)n1 | 136

Series 2 — observed: binding; concentration: 1 µM
SMILES: COc1ccc2[nH]c3c4[nH]c5ccc(OC)cc5c4c4c(c3c2c1)C(=O)NC4=O
target | assay | remaining binding
Casein kinase I isoform gamma-2 (CSNK1G2, Homo sapiens, UniProt P78368) |  | 86%
Proto-oncogene tyrosine-protein kinase Src (SRC, Homo sapiens, UniProt P12931) | competition with immobilised ligand | 87%
Fibroblast growth factor receptor 2 (FGFR2, Homo sapiens, UniProt P21802) | competition with immobilised ligand | 88%

Series 3 — method: phase 2a trial; host: idiopathic pulmonary fibrosis patients
SMILES: CC(C)n1cnc(-c2ccc(F)cc2)c1-c1ncc(C(=O)Nc2ccc(N3CCN(C)CC3)cc2)[nH]1
conditions | patients with decreased appetite [%]
60 mg once daily, adverse event grade 5 | 0
30 mg once daily, adverse event grade 4 | 0
30 mg once daily, adverse event grade 2 | 0
30 mg once daily, adverse event grade 3 | 0
30 mg once daily, adverse event grade 5 | 0

Series 4 — host: human; sample: microsomes or S9; concentration: 2 µM; time: 0.5 h
Structure (SMILES) | remaining compound
CO[C@@H]1COC[C@@H]1NC(=O)NC1Cc2ccccc2C1 | > 100%
COc1cc(C(=O)Nc2cnn(CCCC(=O)O)c2)cc(OC)c1OC | > 99.9%
CN1CC[C@H](OC(=O)C2(c3ccc(F)cc3)CCCC2)C1 | 84.8%

Series 5 — observed: enzyme activity; mode: inhibitor; concentration: 77 µM; reference: untreated
Target: DNA polymerase theta, ATPase domain (POLQ, Homo sapiens, UniProt O75417)
Chain of UniProt O75417 (whole entry, unmodified, looked up): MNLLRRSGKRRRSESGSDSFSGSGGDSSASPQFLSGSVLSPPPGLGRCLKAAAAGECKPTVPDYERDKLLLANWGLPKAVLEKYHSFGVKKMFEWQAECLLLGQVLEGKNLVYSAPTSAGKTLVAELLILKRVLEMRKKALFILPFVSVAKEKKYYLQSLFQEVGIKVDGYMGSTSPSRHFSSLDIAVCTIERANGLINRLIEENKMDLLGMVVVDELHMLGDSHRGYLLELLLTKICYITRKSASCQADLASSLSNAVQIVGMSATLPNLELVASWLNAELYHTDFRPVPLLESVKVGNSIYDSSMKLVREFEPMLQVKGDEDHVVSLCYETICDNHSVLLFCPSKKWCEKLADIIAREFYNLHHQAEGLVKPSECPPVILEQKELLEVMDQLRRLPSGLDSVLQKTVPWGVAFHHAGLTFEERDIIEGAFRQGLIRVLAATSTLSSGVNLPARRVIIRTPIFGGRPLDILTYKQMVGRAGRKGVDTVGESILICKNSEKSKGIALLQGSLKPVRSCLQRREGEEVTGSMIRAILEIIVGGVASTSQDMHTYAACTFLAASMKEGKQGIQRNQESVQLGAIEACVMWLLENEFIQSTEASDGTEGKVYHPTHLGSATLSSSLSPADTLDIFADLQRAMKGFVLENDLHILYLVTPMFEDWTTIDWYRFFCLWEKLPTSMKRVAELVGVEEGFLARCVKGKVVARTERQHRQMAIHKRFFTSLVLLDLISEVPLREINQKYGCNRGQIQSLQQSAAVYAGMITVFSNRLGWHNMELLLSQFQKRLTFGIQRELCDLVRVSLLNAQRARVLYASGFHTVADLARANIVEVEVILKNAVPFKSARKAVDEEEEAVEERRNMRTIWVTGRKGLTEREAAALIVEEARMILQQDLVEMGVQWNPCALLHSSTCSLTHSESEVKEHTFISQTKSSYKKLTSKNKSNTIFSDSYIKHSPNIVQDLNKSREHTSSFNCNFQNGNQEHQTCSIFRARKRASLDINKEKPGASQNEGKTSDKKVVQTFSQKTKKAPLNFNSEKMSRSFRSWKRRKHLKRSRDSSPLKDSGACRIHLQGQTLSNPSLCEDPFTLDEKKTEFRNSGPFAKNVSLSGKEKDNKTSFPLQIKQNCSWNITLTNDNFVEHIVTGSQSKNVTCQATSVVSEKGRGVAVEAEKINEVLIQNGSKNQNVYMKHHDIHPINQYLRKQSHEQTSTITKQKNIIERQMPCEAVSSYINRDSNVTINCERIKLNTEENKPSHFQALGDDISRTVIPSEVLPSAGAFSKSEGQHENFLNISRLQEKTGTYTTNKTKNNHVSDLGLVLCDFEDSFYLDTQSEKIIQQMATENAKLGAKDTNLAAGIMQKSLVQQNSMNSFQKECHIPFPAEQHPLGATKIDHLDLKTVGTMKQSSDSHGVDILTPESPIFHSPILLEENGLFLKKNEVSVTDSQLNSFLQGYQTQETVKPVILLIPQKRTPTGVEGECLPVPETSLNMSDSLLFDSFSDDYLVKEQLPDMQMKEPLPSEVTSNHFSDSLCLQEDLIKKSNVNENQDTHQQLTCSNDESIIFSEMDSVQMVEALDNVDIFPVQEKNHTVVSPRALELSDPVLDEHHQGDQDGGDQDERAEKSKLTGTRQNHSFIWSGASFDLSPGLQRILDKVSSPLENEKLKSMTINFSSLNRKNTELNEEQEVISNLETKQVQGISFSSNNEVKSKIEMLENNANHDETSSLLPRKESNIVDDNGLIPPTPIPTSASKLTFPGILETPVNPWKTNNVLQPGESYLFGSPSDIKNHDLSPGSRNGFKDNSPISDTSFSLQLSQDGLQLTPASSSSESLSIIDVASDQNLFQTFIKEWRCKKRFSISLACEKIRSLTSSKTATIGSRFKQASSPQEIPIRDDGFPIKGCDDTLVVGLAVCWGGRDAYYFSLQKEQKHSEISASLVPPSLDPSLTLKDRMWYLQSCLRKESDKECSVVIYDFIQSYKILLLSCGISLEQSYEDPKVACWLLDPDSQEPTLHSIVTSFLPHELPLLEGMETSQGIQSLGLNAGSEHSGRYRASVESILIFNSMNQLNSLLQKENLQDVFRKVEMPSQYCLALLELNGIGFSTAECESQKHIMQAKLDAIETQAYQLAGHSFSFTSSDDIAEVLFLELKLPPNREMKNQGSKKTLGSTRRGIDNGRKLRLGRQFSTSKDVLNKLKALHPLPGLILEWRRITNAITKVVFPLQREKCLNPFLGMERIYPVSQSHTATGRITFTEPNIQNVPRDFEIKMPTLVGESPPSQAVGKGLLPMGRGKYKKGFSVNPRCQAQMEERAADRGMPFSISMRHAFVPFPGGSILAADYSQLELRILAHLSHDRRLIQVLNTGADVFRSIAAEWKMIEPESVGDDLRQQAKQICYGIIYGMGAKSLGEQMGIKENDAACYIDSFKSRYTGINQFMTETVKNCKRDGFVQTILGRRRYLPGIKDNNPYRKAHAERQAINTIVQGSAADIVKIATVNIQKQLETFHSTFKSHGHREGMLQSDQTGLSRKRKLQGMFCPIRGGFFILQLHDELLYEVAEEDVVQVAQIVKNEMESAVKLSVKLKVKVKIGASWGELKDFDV
SMILES | remaining activity [%]
N=C(N)NC(=N)N1CCOCC1 | 96.5
O=C(NOCC(O)CO)c1cc(Br)c(F)c(F)c1Nc1ccc(I)cc1F (stereo not drawn) | 85.7
O=C(Nc1ccc2[nH]ncc2c1)C1CCC1 | 99.2
C=CC(=O)Nc1ccc2ncnc(Nc3cccc(Br)c3)c2c1 | 114
Cn1ccc2cc3c(cc21)CCN3C(=O)Nc1cccnc1 | 100

Series 6 — cell line: mouse MPNST tumor cells; method: high-content immunofluorescence imaging; refers to: nuclear SOX9; concentration: 10 µM; time: 12 h; notes: mean of 2 replicates; reference: DMSO control; direction: higher = more nuclear SOX9
Structure (SMILES) | nuclear SOX9 intensity
Nc1ccn([C@@H]2O[C@H](CO)[C@@H](O)C2(F)F)c(=O)n1 | 115 % of DMSO and 108 % of DMSO
Cn1c([N+](=O)[O-])cnc1COC(N)=O | 101 % of DMSO
CS(=O)(=O)c1ccc(C2=C(c3ccccc3)C(=O)OC2)cc1 | 115 % of DMSO

Series 7 — observed: cell-free assay; method: competition with immobilised ligand; concentration: 1 µM
SMILES: CC(=O)Nc1c(C(C)=O)c(=O)n(C)c2nc(-c3ccc(Cl)cc3Cl)c(-c3ccc(Cl)cc3)cc12
target | remaining binding [%]
Casein kinase I isoform alpha (CSNK1A1, Homo sapiens, UniProt P48729) | 100
Serine/threonine-protein kinase LATS2 (LATS2, Homo sapiens, UniProt Q9NRM7) | 100
Serine/threonine-protein kinase 4 (STK4, Homo sapiens, UniProt Q13043) | 100
Mast/stem cell growth factor receptor Kit (KIT, Homo sapiens, UniProt P10721, D816V) | 100
Uncharacterized serine/threonine-protein kinase SBK3 (SBK3, Homo sapiens, UniProt P0C264) | 100
Mast/stem cell growth factor receptor Kit (KIT, Homo sapiens, UniProt P10721, V559D/V654A) | 100
Calcium/calmodulin-dependent protein kinase type II subunit alpha (CAMK2A, Homo sapiens, UniProt Q9UQM7) | 100
Fibroblast growth factor receptor 2 (FGFR2, Homo sapiens, UniProt P21802) | 100
Non-receptor tyrosine-protein kinase TNK1 (TNK1, Homo sapiens, UniProt Q13470) | 100
cGMP-dependent protein kinase 1 (PRKG1, Homo sapiens, UniProt Q13976) | 100
Mast/stem cell growth factor receptor Kit (KIT, Homo sapiens, UniProt P10721) | 100
Ribosomal protein S6 kinase alpha-3, N-terminal kinase domain (RPS6KA3, Homo sapiens, UniProt P51812) | 90
Mast/stem cell growth factor receptor Kit (KIT, Homo sapiens, UniProt P10721, A829P) | 100
Dual specificity protein kinase CLK1 (CLK1, Homo sapiens, UniProt P49759) | 100
Serine/threonine-protein kinase Nek11 (NEK11, Homo sapiens, UniProt Q8NG66) | 100
Tyrosine-protein kinase Srms (SRMS, Homo sapiens, UniProt Q9H3Y6) | 78
Dual specificity mitogen-activated protein kinase kinase 7 (MAP2K7, Homo sapiens, UniProt O14733) | 100
Ribosomal protein S6 kinase alpha-4, C-terminal kinase domain (RPS6KA4, Homo sapiens, UniProt O75676) | 100
Ribosomal protein S6 kinase alpha-2, C-terminal kinase domain (RPS6KA2, Homo sapiens, UniProt Q15349) | 100
SRSF protein kinase 2 (SRPK2, Homo sapiens, UniProt P78362) | 100
Mitogen-activated protein kinase kinase kinase 11 (MAP3K11, Homo sapiens, UniProt Q16584) | 100
RAF proto-oncogene serine/threonine-protein kinase (RAF1, Homo sapiens, UniProt P04049) | 100
Epidermal growth factor receptor (EGFR, Homo sapiens, UniProt P00533, L861Q) | 100
Mitogen-activated protein kinase kinase kinase 14 (MAP3K14, Homo sapiens, UniProt Q99558) | 92
Serine/threonine-protein kinase PAK 2 (PAK2, Homo sapiens, UniProt Q13177) | 100

Series 8 — organism: Sarcocystis neurona; observed: parasite growth; concentration: concentration not given; notes: first screen; reference: untreated
SMILES | log2 fold change
CN1[C@@H]2CC[C@H]1C[C@@H](OC(c1ccccc1)c1ccccc1)C2.CS(=O)(=O)O | -0.04
C[C@]12CCC(=O)C=C1CC[C@@H]1[C@@H]2[C@@H](O)C[C@@]2(C)[C@H]1CC[C@]2(O)C(=O)COC(=O)CCC(=O)O | 0.00573
CCN(CC)C(=O)C1(c2ccccc2)CC1CN.Cl (stereo not drawn) | -0.18

Mixed results
SMILES | system | conditions | measurement | value
COc1cc(C(=O)OCCCN2CCCN(CCCOC(=O)c3cc(OC)c(OC)c(OC)c3)CC2)cc(OC)c1OC | naive mice, mixed sexes | intrathecal, 100 nmol, before dosing | rotarod fall latency | 62 s and 72 s and 89 s and 69 s and 77 s and 79 s

Repeated from above (series 7):
target | remaining binding [%]
Uncharacterized serine/threonine-protein kinase SBK3 (SBK3, Homo sapiens, UniProt P0C264) | 100
Mast/stem cell growth factor receptor Kit (KIT, Homo sapiens, UniProt P10721, V559D/V654A) | 100
Calcium/calmodulin-dependent protein kinase type II subunit alpha (CAMK2A, Homo sapiens, UniProt Q9UQM7) | 100
Fibroblast growth factor receptor 2 (FGFR2, Homo sapiens, UniProt P21802) | 100
